Results pooled from the literature.
Each numbered part is a random draw from the data of one study; scales do not carry over between parts.
Chain of UniProt O15530 (whole entry, looked up): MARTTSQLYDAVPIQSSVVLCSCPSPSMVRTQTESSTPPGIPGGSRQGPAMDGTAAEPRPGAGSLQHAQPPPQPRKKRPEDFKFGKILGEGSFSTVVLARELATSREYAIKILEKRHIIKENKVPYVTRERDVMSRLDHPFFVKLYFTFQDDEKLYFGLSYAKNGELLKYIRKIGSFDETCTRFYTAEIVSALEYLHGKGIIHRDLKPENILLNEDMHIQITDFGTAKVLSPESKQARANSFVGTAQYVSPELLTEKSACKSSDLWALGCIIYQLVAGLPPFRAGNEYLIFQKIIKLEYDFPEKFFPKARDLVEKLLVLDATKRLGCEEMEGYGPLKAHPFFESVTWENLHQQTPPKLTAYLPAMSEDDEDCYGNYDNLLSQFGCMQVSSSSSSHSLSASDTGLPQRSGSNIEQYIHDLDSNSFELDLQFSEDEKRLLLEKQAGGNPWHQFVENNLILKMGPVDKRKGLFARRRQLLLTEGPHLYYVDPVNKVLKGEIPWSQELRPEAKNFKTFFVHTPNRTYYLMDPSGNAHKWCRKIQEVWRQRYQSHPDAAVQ
Chain of UniProt Q00534 (whole entry, looked up): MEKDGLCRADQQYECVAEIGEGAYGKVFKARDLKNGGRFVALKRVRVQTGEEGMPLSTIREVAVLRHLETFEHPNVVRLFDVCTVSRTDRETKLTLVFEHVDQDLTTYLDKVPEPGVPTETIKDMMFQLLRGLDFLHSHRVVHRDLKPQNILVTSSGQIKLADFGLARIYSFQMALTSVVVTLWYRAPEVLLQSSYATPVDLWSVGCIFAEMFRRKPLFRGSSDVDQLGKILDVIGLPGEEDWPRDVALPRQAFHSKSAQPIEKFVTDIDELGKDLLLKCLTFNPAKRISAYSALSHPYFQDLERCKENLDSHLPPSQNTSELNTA
Chain of UniProt P11802 (whole entry, looked up): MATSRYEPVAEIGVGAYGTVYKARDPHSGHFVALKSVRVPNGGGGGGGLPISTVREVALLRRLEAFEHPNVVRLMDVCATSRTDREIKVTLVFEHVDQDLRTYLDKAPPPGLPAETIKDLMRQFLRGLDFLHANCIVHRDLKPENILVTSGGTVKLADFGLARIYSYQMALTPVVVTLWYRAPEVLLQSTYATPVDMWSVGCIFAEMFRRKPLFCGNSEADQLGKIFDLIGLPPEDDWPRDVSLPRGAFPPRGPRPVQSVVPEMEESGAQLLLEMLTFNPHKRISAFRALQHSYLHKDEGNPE
Chain of UniProt O43194 (whole entry, looked up): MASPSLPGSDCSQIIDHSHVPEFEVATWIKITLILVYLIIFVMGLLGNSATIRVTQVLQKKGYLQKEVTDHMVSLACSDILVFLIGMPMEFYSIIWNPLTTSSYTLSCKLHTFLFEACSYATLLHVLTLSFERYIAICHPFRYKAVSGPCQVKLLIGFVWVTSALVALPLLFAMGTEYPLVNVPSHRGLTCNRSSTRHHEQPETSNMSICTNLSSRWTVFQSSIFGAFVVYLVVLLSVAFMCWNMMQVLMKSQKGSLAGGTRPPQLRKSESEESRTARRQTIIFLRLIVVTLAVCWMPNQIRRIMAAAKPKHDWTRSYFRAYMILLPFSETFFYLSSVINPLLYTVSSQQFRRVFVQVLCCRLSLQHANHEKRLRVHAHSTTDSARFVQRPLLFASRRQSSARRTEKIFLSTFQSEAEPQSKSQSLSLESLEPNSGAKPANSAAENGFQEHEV
Chain of UniProt P54762 (whole entry, looked up): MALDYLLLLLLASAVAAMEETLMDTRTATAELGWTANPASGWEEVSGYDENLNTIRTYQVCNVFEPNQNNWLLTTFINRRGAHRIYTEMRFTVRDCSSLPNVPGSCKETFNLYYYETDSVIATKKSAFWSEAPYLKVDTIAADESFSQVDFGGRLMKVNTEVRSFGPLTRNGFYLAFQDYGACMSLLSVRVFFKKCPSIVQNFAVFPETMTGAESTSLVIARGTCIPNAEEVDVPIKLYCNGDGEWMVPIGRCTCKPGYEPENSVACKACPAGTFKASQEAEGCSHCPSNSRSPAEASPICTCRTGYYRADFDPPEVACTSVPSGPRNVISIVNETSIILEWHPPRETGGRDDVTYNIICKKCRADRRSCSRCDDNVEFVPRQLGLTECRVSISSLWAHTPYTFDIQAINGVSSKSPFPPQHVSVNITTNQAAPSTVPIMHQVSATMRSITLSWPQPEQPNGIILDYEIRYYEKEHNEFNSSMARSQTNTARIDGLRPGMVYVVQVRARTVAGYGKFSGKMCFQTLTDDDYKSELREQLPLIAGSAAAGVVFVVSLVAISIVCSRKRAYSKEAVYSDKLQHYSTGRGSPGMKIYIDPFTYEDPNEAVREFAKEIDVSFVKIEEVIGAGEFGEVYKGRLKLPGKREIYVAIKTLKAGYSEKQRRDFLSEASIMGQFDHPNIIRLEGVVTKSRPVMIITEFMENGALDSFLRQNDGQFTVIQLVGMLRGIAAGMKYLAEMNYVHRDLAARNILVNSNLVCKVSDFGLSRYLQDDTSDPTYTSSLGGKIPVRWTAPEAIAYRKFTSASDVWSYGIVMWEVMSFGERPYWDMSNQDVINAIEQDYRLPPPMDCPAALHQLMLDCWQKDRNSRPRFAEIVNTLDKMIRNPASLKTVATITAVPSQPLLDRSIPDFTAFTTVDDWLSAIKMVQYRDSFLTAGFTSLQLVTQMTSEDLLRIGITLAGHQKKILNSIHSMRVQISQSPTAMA
Chain of UniProt P54760 (whole entry, looked up): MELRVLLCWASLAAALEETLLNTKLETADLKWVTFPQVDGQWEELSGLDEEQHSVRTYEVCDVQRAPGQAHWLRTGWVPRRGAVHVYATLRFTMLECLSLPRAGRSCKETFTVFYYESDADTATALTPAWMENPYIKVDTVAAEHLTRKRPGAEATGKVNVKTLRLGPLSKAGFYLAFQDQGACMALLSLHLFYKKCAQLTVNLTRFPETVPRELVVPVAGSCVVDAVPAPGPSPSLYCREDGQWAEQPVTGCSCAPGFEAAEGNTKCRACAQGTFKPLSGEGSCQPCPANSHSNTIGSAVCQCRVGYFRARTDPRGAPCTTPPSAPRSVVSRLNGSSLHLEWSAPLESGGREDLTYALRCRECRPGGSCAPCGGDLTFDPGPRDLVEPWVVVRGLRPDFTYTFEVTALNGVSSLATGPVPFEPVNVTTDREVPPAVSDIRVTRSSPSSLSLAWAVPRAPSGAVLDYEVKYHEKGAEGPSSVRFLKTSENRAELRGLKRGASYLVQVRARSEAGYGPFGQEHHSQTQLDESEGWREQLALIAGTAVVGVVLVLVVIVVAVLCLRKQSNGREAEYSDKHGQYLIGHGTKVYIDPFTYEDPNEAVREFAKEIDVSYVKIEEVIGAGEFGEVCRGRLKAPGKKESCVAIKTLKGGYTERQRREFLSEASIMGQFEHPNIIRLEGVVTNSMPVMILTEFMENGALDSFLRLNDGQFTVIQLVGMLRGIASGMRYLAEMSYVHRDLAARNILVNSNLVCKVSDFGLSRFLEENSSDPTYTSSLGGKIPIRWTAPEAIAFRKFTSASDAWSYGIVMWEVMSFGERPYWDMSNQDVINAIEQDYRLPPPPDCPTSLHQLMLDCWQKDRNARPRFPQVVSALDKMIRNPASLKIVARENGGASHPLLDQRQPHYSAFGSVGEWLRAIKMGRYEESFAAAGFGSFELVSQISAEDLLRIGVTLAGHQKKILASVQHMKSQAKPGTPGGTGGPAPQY
Chain of UniProt Q9P1P5 (whole entry, looked up): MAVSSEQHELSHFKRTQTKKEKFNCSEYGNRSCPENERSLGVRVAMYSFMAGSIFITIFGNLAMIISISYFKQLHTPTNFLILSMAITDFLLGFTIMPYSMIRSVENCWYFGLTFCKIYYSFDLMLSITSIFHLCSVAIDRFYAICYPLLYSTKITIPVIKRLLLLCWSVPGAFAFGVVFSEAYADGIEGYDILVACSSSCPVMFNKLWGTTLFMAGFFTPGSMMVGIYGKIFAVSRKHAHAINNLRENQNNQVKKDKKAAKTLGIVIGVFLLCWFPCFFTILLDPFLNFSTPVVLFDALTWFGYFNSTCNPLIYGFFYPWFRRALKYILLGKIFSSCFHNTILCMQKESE
Chain of UniProt Q8NGU9 (whole entry, looked up): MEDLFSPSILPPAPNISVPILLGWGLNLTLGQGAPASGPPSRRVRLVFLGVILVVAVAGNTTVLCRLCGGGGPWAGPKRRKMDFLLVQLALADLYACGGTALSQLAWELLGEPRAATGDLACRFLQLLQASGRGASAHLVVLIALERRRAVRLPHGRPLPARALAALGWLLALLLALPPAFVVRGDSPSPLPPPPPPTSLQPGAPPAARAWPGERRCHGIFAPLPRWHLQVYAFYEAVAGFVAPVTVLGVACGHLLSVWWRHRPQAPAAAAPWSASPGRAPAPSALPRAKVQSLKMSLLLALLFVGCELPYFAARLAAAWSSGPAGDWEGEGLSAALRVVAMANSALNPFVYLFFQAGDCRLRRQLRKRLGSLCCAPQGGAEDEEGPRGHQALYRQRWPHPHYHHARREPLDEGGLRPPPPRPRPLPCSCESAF

Sample 1
SMILES: c1cc(-c2cnn3cc(-c4ccc(OCCN5CCCCC5)cc4)cnc23)ccn1
Read-out: enzyme activity
Action: inhibitor
Concentration: 0.5 µM
Reference: control
target	remaining activity [%]
SRMS (Homo sapiens, UniProt Q9H3Y6)	98
CAMK2B (Homo sapiens, UniProt Q13554)	67.2
Cyclin-dependent kinase 6, with cyclin D3 (CDK6, Homo sapiens, UniProt Q00534)	14.8
DYRK3 (Homo sapiens, UniProt O43781)	76.8
HIPK4 (Homo sapiens, UniProt Q8NE63)	115
EPHB1 (Homo sapiens, UniProt P54762)	17
EPHA4 (Homo sapiens, UniProt P54764)	37.7
AXL (Homo sapiens, UniProt P30530)	91.1
STK16 (Homo sapiens, UniProt O75716)	40.9
RPS6KA5 (Homo sapiens, UniProt O75582)	83
MAPKAPK3 (Homo sapiens, UniProt Q16644)	94.2
Cyclin-dependent kinase 1, with cyclin B (CDK1, Homo sapiens, UniProt P06493)	79.3
PHKG1 (Homo sapiens, UniProt Q16816)	13.7
HIPK2 (Homo sapiens, UniProt Q9H2X6)	70.8
Cyclin-dependent kinase 4, with cyclin D3 (CDK4, Homo sapiens, UniProt P11802)	60.7
MAP4K4 (Homo sapiens, UniProt O95819)	29
PDPK1 (Homo sapiens, UniProt O15530)	110
EPHB4 (Homo sapiens, UniProt P54760)	37.7
RPS6KA6 (Homo sapiens, UniProt Q9UK32)	74.3
STK17A (Homo sapiens, UniProt Q9UEE5)	48.8
WNK3 (Homo sapiens, UniProt Q9BYP7)	78.1
BLK (Homo sapiens, UniProt P51451)	84.5

Sample 2
Structure (SMILES): CC(C)CN(C)c1nc(N)c(C(=O)N=C(N)N)nc1Cl
Read-out: β-arrestin recruitment
Action: agonist
Technique: PRESTO-Tango
Concentration: 10 µM
Reference: untreated
target	fold over basal
Trace amine-associated receptor 2 (TAAR2, Homo sapiens, UniProt Q9P1P5)	0.63 fold
Probable G-protein coupled receptor 45 (GPR45, Homo sapiens, UniProt Q9Y5Y3)	1.13
ACKR3 (Homo sapiens, UniProt P25106)	7.83
GPR39 (Homo sapiens, UniProt O43194)	0.86
PROKR1 (Homo sapiens, UniProt Q8TCW9)	1.3
Putative adhesion G protein-coupled receptor F2P (ADGRF2P, Homo sapiens, UniProt Q8IZF7)	0.64
Probable G-protein coupled receptor 150 (GPR150, Homo sapiens, UniProt Q8NGU9)	1.85
Probable G-protein coupled receptor 148 (GPR148, Homo sapiens, UniProt Q8TDV2)	1.2
ADRA1B (Homo sapiens, UniProt P35368)	1.03

Sample 3
Target: Muscarinic acetylcholine receptor M2 (CHRM2, Homo sapiens, UniProt P08172)
Chain of UniProt P08172 (whole entry, looked up): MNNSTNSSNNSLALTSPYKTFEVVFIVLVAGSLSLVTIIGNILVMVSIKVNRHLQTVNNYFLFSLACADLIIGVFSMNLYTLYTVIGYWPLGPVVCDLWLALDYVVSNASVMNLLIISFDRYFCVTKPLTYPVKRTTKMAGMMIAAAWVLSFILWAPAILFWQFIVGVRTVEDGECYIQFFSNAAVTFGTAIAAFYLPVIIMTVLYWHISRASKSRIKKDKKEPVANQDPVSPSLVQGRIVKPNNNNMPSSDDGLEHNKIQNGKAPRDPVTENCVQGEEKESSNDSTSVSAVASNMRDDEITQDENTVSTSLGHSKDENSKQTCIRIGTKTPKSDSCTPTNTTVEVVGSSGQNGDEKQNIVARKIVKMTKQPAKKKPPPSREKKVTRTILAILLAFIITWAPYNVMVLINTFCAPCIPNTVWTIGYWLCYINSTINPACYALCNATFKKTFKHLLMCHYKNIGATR
Read-out: ligand displacement
Concentration: 10 µM
Structure (SMILES)	inhibition
CN1CCN(c2ccnc(NCCc3ccccc3)n2)CC1	-1.51%
O=C(NS(=O)(=O)c1ccc(NCC2CCOCC2)c([N+](=O)[O-])c1)c1ccc(N2CCN(Cc3ccc(C(F)(F)F)cc3-c3ccc(Cl)cc3)CC2)cc1Oc1cnc2[nH]ccc2c1	1.6%
Cc1noc([C@H]2C[C@@H](c3ccc(C(F)(F)F)cc3)CN(C(=O)N3CCS(=O)(=O)C3)C2)n1	39.5%
O=C(NCCCC1CCCCC1)c1ccc(CNC(=O)c2cnn(-c3ccccc3)c2C(F)(F)F)cc1	19.3%
CS(=O)(=O)N1CCCC(NC(=O)[C@H](CCC2CCCCC2)NC(=O)c2ccc(CNC(=O)c3cnc4ccccn34)cc2)C1 (stereo partly shown)	18.5%
COc1cccc(NC(=O)c2nc3scc(CN(C)Cc4ccccc4)c3c(=O)[nH]2)c1	26.6%
CCc1ccccc1C(=O)Nc1n[nH]c2c(C)c(F)c(C3C(C#N)=C(C)N(C)C(C)=C3C#N)cc12	5.1%
CN(C)C(=O)c1sc2nc(N3CCC(S(C)(=O)=O)CC3)cc(C(F)(F)F)c2c1N	13.4%
CN(C)c1ncnc(-c2ccc3nc(Nc4cc(CN5CCN(C(=O)CC(F)(F)F)CC5)ccn4)[nH]c3c2)c1Cl	35.1%
C[C@H](c1ccc(F)cc1)N(Cc1cccc(C(=O)O)c1)C(=O)c1cnc2ccccc2c1	12.6%
O=C1NC(c2ccccn2)Sc2ccccc21 (stereo not shown)	13.7%
CCC(F)(F)c1cc(N2CCC(S(C)(=O)=O)CC2)nc2sc(C(N)=O)c(N)c12	8%
COc1cc(C(=O)O)ncc1C#Cc1ccccc1NS(=O)(=O)c1cccc2c(N(C)C)ccnc12	2.62%
CC(=O)Nc1ncc(CN2CCC[C@H](Cc3cc(C)nc(C)c3)C2)s1	9.54%
COc1cc(N[C@@H]2CCCC[C@]2(O)C(F)(F)F)ccc1F	3.81%
Cc1ccc(-c2cnc([C@@]3(O)CC[C@H](C(=O)O)C(C)(C)C3)s2)cc1Nc1cccc(C(F)(F)F)n1	23%
CC[C@H](CC(=O)O)n1c(=O)c2ncccc2n(Cc2cn(C)c3cc(C)cc(C)c23)c1=O	12%
Nc1nc(NCc2ccccc2)nc(-c2ccccc2CO)n1	23.2%
Cc1c(NC(=O)c2cc(C(N)=O)nc3cc(F)ccc23)c(C(F)(F)F)nn1Cc1ccc(C#N)cc1	25.8%
C[C@@H]1CN(c2cc(-c3n[nH]c4ccc(OC5(C)CC5)cc34)ncn2)C[C@H](C)O1	25.9%
CN(C)CC#Cc1ccc(OCCCc2sc(N3CCc4cccc(C(=O)Nc5nc6ccccc6s5)c4C3)nc2C(=O)O)c(F)c1	34.7%
O=S(=O)(NC1CCC(c2cc(F)ccc2F)(S(=O)(=O)c2ccc(Cl)cc2)CC1)C(F)(F)F (stereo not shown)	-0.654%
CN([C@@H]1CCc2c(CC(=O)O)c3ccccc3n2C1)S(=O)(=O)c1ccc(F)cc1	-0.4%
C[C@@H](c1cccc(C#N)c1)n1cc(Cl)cc(C(N)=O)c1=N	0.11%
NC(=O)c1ccc2nc(-c3ccc(C4(N)CCC4)cc3)c(-c3ccccc3)n2n1	11.2%

Sample 4
Target: Diamine acetyltransferase 1 (Homo sapiens, UniProt P21673)
Action: inhibitor
Concentration: 10 µM
Reference: control
Target sequence (P21673 1-171): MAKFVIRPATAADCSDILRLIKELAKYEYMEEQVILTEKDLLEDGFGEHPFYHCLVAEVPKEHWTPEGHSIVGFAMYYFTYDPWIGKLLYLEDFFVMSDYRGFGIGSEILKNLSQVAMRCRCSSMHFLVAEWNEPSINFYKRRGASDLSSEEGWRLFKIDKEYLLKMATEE
Structure (SMILES)	remaining activity [%]
OCc1ccccc1	97.7
COc1cc(C[C@H](C)[C@H](C)Cc2ccc3c(c2)OCO3)ccc1O	100
C[C@@H]1O[C@@H](O[C@H]2[C@H](Oc3cc(O)c4c(c3)O[C@H](c3ccc(O)cc3)CC4=O)O[C@H](CO)[C@@H](O)[C@@H]2O)[C@H](O)[C@H](O)[C@H]1O	85.9
O=C1CC(c2ccccc2)Oc2ccccc21 (stereo not shown)	97.1
Cc1cc(Cc2cc(C)cc(C(C)(C)C)c2O)c(O)c(C(C)(C)C)c1	100
C=C(CC[C@@H](C(=O)O)[C@H]1[C@H](O)C[C@@]2(C)C3=CC[C@H]4C(C)(C)[C@@H](O)CC[C@]4(C)C3=CC[C@]12C)C(C)C	74.1
C=CCCCCCCCCC(=O)O	83.4
OCc1ccc(O[C@@H]2O[C@H](CO)[C@@H](O)[C@H](O)[C@H]2O)cc1	96
COC(=O)C1=CO[C@@H](O[C@@H]2O[C@H](CO)[C@@H](O)[C@H](O)[C@H]2O)[C@H]2[C@@H]1C=C[C@@]2(O)CO	88.5
CCCCCCCCCCCCCCCCCC	101
C=C(C)[C@@H]1CC=C(CO)CC1	101

A few entries again (sample 1):
target	remaining activity [%]
Cyclin-dependent kinase 1, with cyclin B (CDK1, Homo sapiens, UniProt P06493)	79.3
DYRK3 (Homo sapiens, UniProt O43781)	76.8
Cyclin-dependent kinase 6, with cyclin D3 (CDK6, Homo sapiens, UniProt Q00534)	14.8
